Measurements gathered from unrelated publications.
Lines come from different studies, so protocols differ. Values joined by “and” are separate records of one study, mostly repeats; a detail may differ. ± gives the spread as reported.

Compound | tested on | assay | test system | setting | scale | measurement | value
CN1C(=O)C(C2C3=C(CC(C)(C)CC3=O)Oc3ccc(Cl)cc32)C(=O)N(C)C1=O (stereo not shown) | 3T3-L1 pre-adipocytes | cell viability, MTT |  | 72 h |  | IC50 | > 100 µg/mL
COc1ccccc1-c1n[nH]c2nc(N[C@H]3CC[C@H](NS(=O)(=O)CC(C)C)CC3)ncc12 |  | bead binding, competition bead pull-down, refers to: LINJ.36.5330 | Leishmania donovani extract | 10 µM | relative to: vehicle | relative abundance | 1.68
CC(C)CC(C(=O)N1CC2(CC1C#N)C(=O)Nc1ccccc12)N(C)C(=O)c1cc2c(F)cc(F)c(F)c2[nH]1 (stereo not shown) | human coronavirus 229E | viral replication |  | 0.000137 µM |  | inhibition | 19.9%
NC[C@]1(CC(=O)O)CC[C@H]([18F])CC1 |  | PET kinetic modelling | rhesus monkey, whole brain | dose not given, with: gabapentin pre-injection | relative to: baseline | VT change | -36%
CC[C@@H]1CN2CCc3c([nH]c4cccc(OC)c34)[C@@H]2C[C@@H]1/C(=C\OC)C(=O)OC | rabbit anti-mitragynine polyclonal IgG | antigen binding, competitor, competitive indirect ELISA | 10% methanol | 60 min both antibody incubations |  | IC50 | 1 µg/mL and 0.8 µg/mL and 0.83 µg/mL and 0.82 µg/mL
Cc1nc2ccc(OC(F)(F)F)cn2c1C(=O)NCc1ccc2oc(-c3ccc(Cl)cc3)nc2c1 | Mycolicibacterium smegmatis |  |  | 72 h |  | MIC | > 100 µM
O=C(C[Se]C(=O)c1cccs1)Nc1cccc(C(F)(F)F)c1 | NCI60 colon subpanel | NCI60 five-dose screen |  |  |  | CC50 | 18.9 µM
CCc1nc2ccc(Br)cn2c1C(=O)NCc1ccc2oc(-c3ccc(OC(F)(F)F)cc3)nc2c1 | Mycolicibacterium smegmatis |  |  | 72 h |  | MIC | > 50 µM
CSCC[C@H](N)C(=O)N[C@@H](C)C(=O)N[C@@H](CCCNC(=N)N)C(=O)N[C@@H](CCCNC(=N)N)C(=O)N[C@@H](CC(=O)O)C(=O)N[C@@H](CCCCN)C(=O)N[C@H](C(=O)N[C@@H](CC(=O)O)C(=O)N[C@@H](Cc1ccccc1)C(=O)N[C@@H](C)C(=O)N[C@@H](CCCNC(=N)N)C(=O)N[C@@H](CCCNC(=N)N)C(=O)N[C@@H](CCCNC(=N)N)C(=O)N[C@@H](CCCNC(=N)N)C(=O)NCCCCCC(=O)NCCCCC(NC(=O)CCCCCNC(=O)[C@H](CCCNC(=N)N)NC(=O)[C@H](CCCNC(=N)N)NC(=O)[C@H](CCCNC(=N)N)NC(=O)[C@H](CCCNC(=N)N)NC(=O)[C@H](C)NC(=O)[C@H](Cc1ccccc1)NC(=O)[C@H](CC(=O)O)NC(=O)[C@@H](NC(=O)[C@H](CCCCN)NC(=O)[C@H](CC(=O)O)NC(=O)[C@H](CCCNC(=N)N)NC(=O)[C@H](CCCNC(=N)N)NC(=O)[C@H](C)NC(=O)[C@@H](N)CCSC)[C@@H](C)O)C(=O)NCCCCC(NC(=O)C(CCCCNC(=O)CCCCCNC(=O)[C@H](CCCNC(=N)N)NC(=O)[C@H](CCCNC(=N)N)NC(=O)[C@H](CCCNC(=N)N)NC(=O)[C@H](CCCNC(=N)N)NC(=O)[C@H](C)NC(=O)[C@H](Cc1ccccc1)NC(=O)[C@H](CC(=O)O)NC(=O)[C@@H](NC(=O)[C@H](CCCCN)NC(=O)[C@H](CC(=O)O)NC(=O)[C@H](CCCNC(=N)N)NC(=O)[C@H](CCCNC(=N)N)NC(=O)[C@H](C)NC(=O)[C@@H](N)CCSC)[C@@H](C)O)NC(=O)CCCCCNC(=O)[C@H](CCCNC(=N)N)NC(=O)[C@H](CCCNC(=N)N)NC(=O)[C@H](CCCNC(=N)N)NC(=O)[C@H](CCCNC(=N)N)NC(=O)[C@H](C)NC(=O)[C@H](Cc1ccccc1)NC(=O)[C@H](CC(=O)O)NC(=O)[C@@H](NC(=O)[C@H](CCCCN)NC(=O)[C@H](CC(=O)O)NC(=O)[C@H](CCCNC(=N)N)NC(=O)[C@H](CCCNC(=N)N)NC(=O)[C@H](C)NC(=O)[C@@H](N)CCSC)[C@@H](C)O)C(N)=O)[C@@H](C)O (stereo partly shown) |  | micro-CT of femur | mouse C57BL/6 female, RANKL-induced bone loss, femur | intraperitoneal, 130 mg/kg, 50 h, with: GST-RANKL 3 mg/kg co-injected, CR4-WHD-tet 150 mg/kg |  | trabecular separation | 1200 µm
CCN(CC)C(=O)[C@@H]1C=C2c3cccc4c3c(cn4C(=O)c3cccs3)C[C@H]2N(C)C1 |  | magnetometer detection | mouse C57BL/6J male | intraperitoneal, dose not given, lower doses, 5 min blocks |  | time to peak head-twitch response | 10 to 15 min
CCc1nn(C)c2nc(-c3ccc(C(=O)O)cc3)nc(NCc3ccccc3)c12 | Cryptosporidium parvum |  | HCT-8 | 6 x EC90, 0 h | relative to: DMSO control | parasite number | 109% and 96.8% and 93.3% and 101%
COc1ccccc1-c1ccncc1C(=O)Nc1nnc(OCc2ccc(Cl)cc2)s1 | HCT-116 BRCA2 wild-type |  |  | 0.125 µM | relative to: untreated | colony survival | 96.2%
Cc1cc(C(=O)Nc2nc3cccc(C)c3n2[C@H]2CCCCN(C(=O)/C=C/CN(C)C)C2)ccn1 | Trypanosoma brucei | propidium iodide flow cytometry | bloodstream form | concentration not given, 16 h |  | cells in sub-G0 phase | 2.17%
Nc1ncc(-c2cc(-c3cnn(CC(F)(F)F)c3)ncc2F)nc1C(=O)NC1CNCC(F)C1 (stereo not shown) | ABL1(E255K)-phosphorylated | KINOMEscan competition binding |  | 1 µM | relative to: DMSO control | remaining binding | 74%
O=C1NC2(CC2)COc2ncc(F)cc2[C@H]2COCCN2c2ccn3ncc1c3n2 |  |  | Sprague-Dawley rat, male, spleen | oral, 2.5 mg/kg/day, 4 weeks, end of treatment |  | organ-to-body weight ratio | 0.27 ± 0.064%
O=C(NCc1cc(F)cc(F)c1)[C@@]1(O)CCN(c2ccc3[nH]ccc3c2)C1=O |  |  | sample D PDX mouse | dose not given, RTV endpoint 500% |  | median survival time | 22.5 days
O=C(O)c1ccc(-c2nc(-c3ccccc3Cl)c3sccn23)cc1 |  | DCPIP reduction | K562 cell lysate | 10 µM, 60 min |  | DR activity | 0.0492 OD/min and 0.0472 OD/min
CC(C)(C)C(=O)OCOP(=O)(OCOC(=O)C(C)(C)C)C1CCCN(O)C1=O (stereo not shown) | Malme-3M |  |  |  |  | log GI50 | -6.37 log M
Cc1ccc2c(n1)c(-c1cccc(S(C)(=O)=O)c1)c(C)n2C/C(F)=C/CN | GABAA receptor (rat) | binding, radioligand binding | rat tissue | 10 µM, Flunitrazepam |  | inhibition | 14%
CCc1nc2ccccn2c1C(=O)NCc1ccc2oc(-c3ccc(OC(F)(F)F)cc3)nc2c1 | Mycolicibacterium smegmatis |  |  | 72 h |  | MIC | > 100 µM
Cc1cc(Oc2nc(N3CC[C@@H](c4ccncc4)C3)ncc2F)[nH]n1 | Mycobacterium tuberculosis | OD | H37Rv PurF CRISPRi knockdown | 0.001953 µM, with: anhydrotetracycline low |  | normalised growth | 25% and 26% and 23%
Cc1ccc(OCCN(C)C)cc1C(=O)N[C@H](C)c1cc(-c2ccc(CNC3CCCC3)s2)nc2ccccc12 | Vero E6 |  |  | 125 µM |  | viability | 0% and 2.28%
CC(C)C[C@H](NC(=O)[C@H](CC(=O)O)NC(=O)[C@@H](NC(=O)[C@H](CCC(=O)O)NC(=O)[C@H](CCCCN)NC(=O)[C@H](Cc1ccc(O)cc1)NC(=O)[C@H](CCCCN)NC(=O)[C@H](Cc1c[nH]cn1)NC(=O)CNC(=O)CN)[C@@H](C)O)C(N)=O | HCV IRES RNA | RNA cleavage, MALDI-TOF mass spectrometry | hepatitis C virus |  |  | initial rate | 4 ± 1.8 %/min
CC[C@H](C)[C@@H]1NC(=O)[C@H](Cc2c[nH]cn2)NC(=O)[C@H](CC(N)=O)NC(=O)[C@H](CO)NC(=O)[C@H](CCC(N)=O)NC(=O)[C@@H](NC(=O)CN)CSSC[C@@H]2NC(=O)CNC(=O)[C@H](C)NC(=O)[C@H](CC(C)C)NC(=O)[C@@H]3CSSC[C@@H](C(=O)NCC(=O)O)NC(=O)[C@H](Cc4ccccc4)NC(=O)CNC(=O)[C@H](CC(N)=O)NC(=O)[C@@H]4CCCN4C(=O)CNC(=O)[C@H](CSSC[C@H](NC(=O)[C@H](CCCNC(=N)N)NC(=O)[C@H](CC(N)=O)NC(=O)[C@H](Cc4c[nH]cn4)NC(=O)[C@H](CCCCN)NC(=O)[C@H](CC(C)C)NC1=O)C(=O)N[C@@H](CCCCN)C(=O)N[C@@H](CCC(N)=O)C(=O)N[C@@H](CC(=O)O)C(=O)N[C@@H](CO)C(=O)N[C@@H](CC(=O)O)C(=O)N3)NC(=O)[C@H](C(C)C)NC2=O | HEK293-TB | Wnt signaling |  | with: Wnt3a transfection |  | IC50 | > 100 µM
COc1ccccc1-c1n[nH]c2nc(NC3CCN(C(=O)Cc4ccc(F)cc4F)CC3)ncc12 |  | bead binding, competition bead pull-down, refers to: LINJ.06.0370 | Leishmania donovani axenic amastigote extract | 10 µM | relative to: vehicle | relative abundance | 1.13
O=C(O)C(Cl)Cl.OCCN(CCO)CCO | Amaranthus retroflexus | herbicidal activity |  | 15 mg/mL, 21 days, pre-emergence greenhouse |  | inhibition | 0%
CC(C)C[C@@H]1NC(=O)[C@H](CC(=O)O)NC(=O)CNC(=O)[C@H](CCCNC(=N)N)NC(=O)[C@H](Cc2ccccc2)NC(=O)[C@H](CCCCNC(=O)CCc2cn(CCCNC(=O)CCC(C(=O)O)N3CCN(CC(=O)O)CCN(CC(=O)O)CCN(CC(=O)O)CC3)nn2)N(C)C(=O)[C@H]2CCCN2C(=O)[C@H](Cc2ccccc2)NC(=O)[C@H](C)NC1=O (stereo partly shown) |  |  | female CB17 SCID mice, tumour and liver | intravenous, dose not given, 90 min, 177Lu-labelled | relative to: tumour over liver | tissue-to-tissue ratio | 3.5 ± 1.1
CCn1ccc(-c2cc([C@@H](C)NC(=O)c3cc(N4CCN(C)CC4)ccc3C)c3ccccc3n2)n1 | Vero E6 |  |  | 15.62 µM |  | viability | 59% and 53.9% and 50.7%

For quick reference, copied from above:
Compound | tested on | assay | test system | setting | scale | measurement | value
COc1ccccc1-c1n[nH]c2nc(NC3CCN(C(=O)Cc4ccc(F)cc4F)CC3)ncc12 |  | bead binding, competition bead pull-down, refers to: LINJ.06.0370 | Leishmania donovani axenic amastigote extract | 10 µM | relative to: vehicle | relative abundance | 1.13
O=C(O)C(Cl)Cl.OCCN(CCO)CCO | Amaranthus retroflexus | herbicidal activity |  | 15 mg/mL, 21 days, pre-emergence greenhouse |  | inhibition | 0%
